{"data": "Experimental data collected from several papers", "note": "Every numbered part comes from another study and shows a few of its results, in no order. Values joined by “and” are separate records of one study, mostly repeats; a detail may differ.", "chain of UniProt O15264 (whole entry, looked up)": "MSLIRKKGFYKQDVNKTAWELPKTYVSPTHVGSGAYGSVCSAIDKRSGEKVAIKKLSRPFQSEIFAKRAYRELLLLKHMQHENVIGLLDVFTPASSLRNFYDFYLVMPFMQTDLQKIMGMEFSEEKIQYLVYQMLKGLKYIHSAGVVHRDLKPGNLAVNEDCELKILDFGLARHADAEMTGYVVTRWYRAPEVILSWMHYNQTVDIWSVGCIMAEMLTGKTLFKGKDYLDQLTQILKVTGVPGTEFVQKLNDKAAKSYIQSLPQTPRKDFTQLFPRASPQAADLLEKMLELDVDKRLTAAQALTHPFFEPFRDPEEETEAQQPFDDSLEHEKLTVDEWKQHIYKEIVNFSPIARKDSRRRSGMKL", "chain of UniProt Q9Y243 (whole entry, looked up)": "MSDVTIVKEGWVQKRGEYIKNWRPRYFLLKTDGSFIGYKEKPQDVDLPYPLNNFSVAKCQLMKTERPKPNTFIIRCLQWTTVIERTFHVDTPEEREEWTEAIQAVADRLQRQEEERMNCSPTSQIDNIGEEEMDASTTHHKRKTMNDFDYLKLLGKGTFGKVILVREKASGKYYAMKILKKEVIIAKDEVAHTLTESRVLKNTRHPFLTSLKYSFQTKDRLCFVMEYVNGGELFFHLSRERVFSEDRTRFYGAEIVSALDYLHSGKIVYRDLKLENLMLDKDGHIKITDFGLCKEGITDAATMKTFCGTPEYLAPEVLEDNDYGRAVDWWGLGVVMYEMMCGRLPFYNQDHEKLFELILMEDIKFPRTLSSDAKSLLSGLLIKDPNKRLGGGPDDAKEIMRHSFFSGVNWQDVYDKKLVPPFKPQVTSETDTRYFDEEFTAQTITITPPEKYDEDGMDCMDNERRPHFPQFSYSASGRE", "chain of UniProt P0C264 (whole entry, looked up)": "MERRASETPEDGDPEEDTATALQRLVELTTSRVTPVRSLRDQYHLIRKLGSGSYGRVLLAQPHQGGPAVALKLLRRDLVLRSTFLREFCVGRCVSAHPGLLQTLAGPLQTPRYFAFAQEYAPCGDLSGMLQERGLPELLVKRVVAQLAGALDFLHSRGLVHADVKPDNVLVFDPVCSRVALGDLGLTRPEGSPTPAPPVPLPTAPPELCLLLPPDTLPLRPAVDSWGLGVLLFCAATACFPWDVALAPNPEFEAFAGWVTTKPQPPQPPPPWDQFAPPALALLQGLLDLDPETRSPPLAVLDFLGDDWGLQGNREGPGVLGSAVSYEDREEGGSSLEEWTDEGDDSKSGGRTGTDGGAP", "chain of UniProt Q9HBH9 (whole entry, looked up)": "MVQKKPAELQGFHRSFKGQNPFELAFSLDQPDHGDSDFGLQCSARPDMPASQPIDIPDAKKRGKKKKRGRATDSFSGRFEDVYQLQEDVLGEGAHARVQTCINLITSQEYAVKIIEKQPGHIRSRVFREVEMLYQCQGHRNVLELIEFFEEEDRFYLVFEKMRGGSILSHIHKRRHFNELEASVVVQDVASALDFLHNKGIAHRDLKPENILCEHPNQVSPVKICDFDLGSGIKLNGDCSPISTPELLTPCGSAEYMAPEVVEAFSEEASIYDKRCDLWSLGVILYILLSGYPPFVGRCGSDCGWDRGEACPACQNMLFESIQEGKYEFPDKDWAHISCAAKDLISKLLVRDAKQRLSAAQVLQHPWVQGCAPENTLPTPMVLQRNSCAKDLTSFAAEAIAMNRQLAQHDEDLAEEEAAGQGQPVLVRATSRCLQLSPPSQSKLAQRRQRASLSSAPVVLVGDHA", "chain of UniProt Q15208 (whole entry, looked up)": "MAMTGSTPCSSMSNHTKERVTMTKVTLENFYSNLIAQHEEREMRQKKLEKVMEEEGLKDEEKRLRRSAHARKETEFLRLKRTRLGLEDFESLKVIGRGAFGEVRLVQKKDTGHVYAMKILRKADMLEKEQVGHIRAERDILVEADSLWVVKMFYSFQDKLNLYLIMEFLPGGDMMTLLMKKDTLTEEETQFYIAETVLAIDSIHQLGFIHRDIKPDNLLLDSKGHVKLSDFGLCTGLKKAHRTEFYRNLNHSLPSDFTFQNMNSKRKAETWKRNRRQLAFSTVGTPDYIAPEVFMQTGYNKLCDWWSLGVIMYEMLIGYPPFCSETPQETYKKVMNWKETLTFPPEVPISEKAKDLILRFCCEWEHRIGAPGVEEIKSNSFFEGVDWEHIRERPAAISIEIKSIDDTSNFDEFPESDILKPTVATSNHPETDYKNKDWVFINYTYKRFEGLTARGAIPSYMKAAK", "chain of UniProt Q9Y3S1 (whole entry, looked up)": "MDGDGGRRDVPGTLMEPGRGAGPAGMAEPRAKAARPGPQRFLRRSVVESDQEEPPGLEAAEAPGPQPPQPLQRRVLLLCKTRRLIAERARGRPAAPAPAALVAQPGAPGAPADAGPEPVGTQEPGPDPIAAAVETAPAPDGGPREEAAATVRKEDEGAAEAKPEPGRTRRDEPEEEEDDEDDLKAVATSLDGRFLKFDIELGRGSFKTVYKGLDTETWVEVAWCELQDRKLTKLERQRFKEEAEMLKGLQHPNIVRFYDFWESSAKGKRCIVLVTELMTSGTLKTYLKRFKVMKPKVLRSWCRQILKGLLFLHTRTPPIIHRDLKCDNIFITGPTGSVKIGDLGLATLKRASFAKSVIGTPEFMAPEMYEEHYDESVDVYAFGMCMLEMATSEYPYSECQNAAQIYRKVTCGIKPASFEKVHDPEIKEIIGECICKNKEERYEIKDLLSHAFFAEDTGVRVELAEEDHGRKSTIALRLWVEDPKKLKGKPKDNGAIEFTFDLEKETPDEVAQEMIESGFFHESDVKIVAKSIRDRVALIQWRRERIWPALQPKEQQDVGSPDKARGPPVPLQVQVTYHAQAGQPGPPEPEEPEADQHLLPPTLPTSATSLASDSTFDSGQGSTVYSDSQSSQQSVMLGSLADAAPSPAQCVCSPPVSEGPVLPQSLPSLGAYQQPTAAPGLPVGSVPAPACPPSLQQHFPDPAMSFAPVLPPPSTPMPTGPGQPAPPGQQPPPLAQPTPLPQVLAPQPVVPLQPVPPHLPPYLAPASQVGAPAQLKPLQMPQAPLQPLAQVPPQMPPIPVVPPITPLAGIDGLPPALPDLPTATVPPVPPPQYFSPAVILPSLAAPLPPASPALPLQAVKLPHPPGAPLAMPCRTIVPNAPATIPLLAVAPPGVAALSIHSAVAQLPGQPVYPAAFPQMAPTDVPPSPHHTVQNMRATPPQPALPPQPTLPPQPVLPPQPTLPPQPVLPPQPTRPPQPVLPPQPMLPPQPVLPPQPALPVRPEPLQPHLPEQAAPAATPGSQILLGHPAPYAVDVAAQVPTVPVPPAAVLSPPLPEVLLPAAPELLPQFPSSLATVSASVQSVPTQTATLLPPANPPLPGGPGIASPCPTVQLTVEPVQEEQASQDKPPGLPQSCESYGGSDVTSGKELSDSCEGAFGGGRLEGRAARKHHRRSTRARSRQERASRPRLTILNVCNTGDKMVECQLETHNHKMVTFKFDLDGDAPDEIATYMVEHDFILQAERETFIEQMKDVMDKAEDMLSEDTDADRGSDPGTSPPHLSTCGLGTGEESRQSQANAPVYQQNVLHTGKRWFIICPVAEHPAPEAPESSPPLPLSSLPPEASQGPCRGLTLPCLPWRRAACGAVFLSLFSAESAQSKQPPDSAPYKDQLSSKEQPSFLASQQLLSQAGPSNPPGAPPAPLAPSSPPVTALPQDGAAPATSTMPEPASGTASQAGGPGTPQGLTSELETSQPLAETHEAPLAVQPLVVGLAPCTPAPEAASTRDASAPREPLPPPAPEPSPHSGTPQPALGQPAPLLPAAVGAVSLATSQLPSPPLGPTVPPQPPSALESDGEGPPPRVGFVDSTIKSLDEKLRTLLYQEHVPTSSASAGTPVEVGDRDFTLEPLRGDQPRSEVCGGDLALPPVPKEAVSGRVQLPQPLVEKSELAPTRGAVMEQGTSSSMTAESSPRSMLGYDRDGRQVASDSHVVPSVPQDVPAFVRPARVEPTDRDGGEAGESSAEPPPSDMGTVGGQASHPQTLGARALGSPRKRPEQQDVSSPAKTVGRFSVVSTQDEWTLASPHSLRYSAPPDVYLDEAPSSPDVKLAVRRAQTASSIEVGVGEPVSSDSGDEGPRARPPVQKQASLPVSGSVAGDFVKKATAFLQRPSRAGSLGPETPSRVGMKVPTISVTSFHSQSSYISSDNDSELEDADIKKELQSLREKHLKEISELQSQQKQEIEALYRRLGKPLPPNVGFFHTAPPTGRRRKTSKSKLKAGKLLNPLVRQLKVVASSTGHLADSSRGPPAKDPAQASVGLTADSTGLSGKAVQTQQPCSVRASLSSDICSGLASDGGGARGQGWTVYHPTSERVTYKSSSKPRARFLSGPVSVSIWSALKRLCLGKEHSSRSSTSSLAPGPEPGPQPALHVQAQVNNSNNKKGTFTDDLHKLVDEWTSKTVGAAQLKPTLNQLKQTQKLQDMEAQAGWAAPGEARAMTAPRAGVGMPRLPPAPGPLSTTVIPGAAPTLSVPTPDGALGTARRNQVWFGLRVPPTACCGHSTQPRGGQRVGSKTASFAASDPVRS"}
{"data": "Sample 1", "target": "Beta-1 adrenergic receptor (ADRB1, Homo sapiens, UniProt P08588)", "action": "agonist", "chain of UniProt P08588 (whole entry, looked up)": "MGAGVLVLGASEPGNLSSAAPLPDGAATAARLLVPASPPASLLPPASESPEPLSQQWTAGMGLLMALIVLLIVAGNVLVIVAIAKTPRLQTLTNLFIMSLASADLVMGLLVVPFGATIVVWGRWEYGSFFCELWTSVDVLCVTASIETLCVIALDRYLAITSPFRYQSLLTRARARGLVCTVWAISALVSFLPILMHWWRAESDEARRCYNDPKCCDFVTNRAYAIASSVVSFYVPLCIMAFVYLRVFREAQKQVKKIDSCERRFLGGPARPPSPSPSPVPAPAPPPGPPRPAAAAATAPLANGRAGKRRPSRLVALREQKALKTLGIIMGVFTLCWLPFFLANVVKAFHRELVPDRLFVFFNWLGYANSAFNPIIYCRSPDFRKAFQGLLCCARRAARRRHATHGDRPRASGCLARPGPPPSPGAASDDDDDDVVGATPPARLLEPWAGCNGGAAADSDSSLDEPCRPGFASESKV"}
{"Compound": "O=[S+]([O-])(NCc1cccc2ccccc12)c1cc(Cl)c(Oc2cccc(N3CCNCC3)c2)s1", "EC50": "≥ 100 µM"}
{"Compound": "C[C@H](O)c1onc(-c2ccccc2)c1C(=O)NC1CCOCC1", "EC50": "≥ 100 µM"}
{"Compound": "c1cc(-c2cc3c(ccn3Cc3ccncc3)c(N3CCOCC3)n2)cc(N2CCOCC2)c1", "EC50": "≥ 100 µM"}
{"Compound": "CN(Cc1ccccc1)Cc1cc(CC2(NCc3ccc(N(C)C)cc3)COC2)no1", "EC50": "≥ 100 µM"}
{"Compound": "O=c1cc(N2CCOCC2)oc2c(NCc3ccc(F)cc3)nccc12", "EC50": "≥ 100 µM"}
{"data": "Sample 2", "SMILES": "Cc1cc(Nc2nc(-c3ccccc3)nc3ccccc23)n[nH]1", "observed": "enzyme activity", "action": "inhibitor", "tested at": "0.5 µM", "relative to": "control"}
{"target": "Serine/threonine-protein kinase WNK2 (WNK2, Homo sapiens, UniProt Q9Y3S1)", "remaining activity [%]": 82.6}
{"target": "Ephrin type-A receptor 5 (EPHA5, Homo sapiens, UniProt P54756)", "remaining activity [%]": 90.6}
{"target": "Casein kinase I isoform alpha (CSNK1A1, Homo sapiens, UniProt P48729)", "remaining activity [%]": 94.6}
{"target": "Protein kinase C delta type (PRKCD, Homo sapiens, UniProt Q05655)", "remaining activity [%]": 91.3}
{"target": "Mitogen-activated protein kinase 13 (MAPK13, Homo sapiens, UniProt O15264)", "remaining activity [%]": 106}
{"target": "Casein kinase II subunit alpha (CSNK2A1, Homo sapiens, UniProt P68400)", "remaining activity [%]": 27}
{"target": "Mast/stem cell growth factor receptor Kit (KIT, Homo sapiens, UniProt P10721)", "remaining activity [%]": 40.8}
{"target": "RAC-gamma serine/threonine-protein kinase (AKT3, Homo sapiens, UniProt Q9Y243)", "remaining activity [%]": 95.5}
{"target": "Tyrosine-protein kinase Lyn (LYN, Homo sapiens, UniProt P07948)", "remaining activity [%]": 79.9}
{"target": "MAP kinase-interacting serine/threonine-protein kinase 2 (MKNK2, Homo sapiens, UniProt Q9HBH9)", "remaining activity [%]": 71.8}
{"target": "cGMP-dependent protein kinase 1 (PRKG1, Homo sapiens, UniProt Q13976)", "remaining activity [%]": 97.3}
{"data": "Sample 3", "SMILES": "FC(F)(F)c1ccc2c(c1)nc(-c1cccnc1)n2C1CC1", "observed": "cell-free assay", "method": "competition with immobilised ligand", "tested at": "1 µM"}
{"target": "Serine/threonine-protein kinase Nek10 (NEK10, Homo sapiens, UniProt Q6ZWH5)", "remaining binding": "100%"}
{"target": "Dual specificity protein kinase CLK1 (CLK1, Homo sapiens, UniProt P49759)", "remaining binding": "100%"}
{"target": "Serine/threonine-protein kinase 3 (STK3, Homo sapiens, UniProt Q13188)", "remaining binding": "94%"}
{"target": "Phosphatidylinositol 4,5-bisphosphate 3-kinase catalytic subunit delta isoform (PIK3CD, Homo sapiens, UniProt O00329)", "remaining binding": "81%"}
{"target": "Mitogen-activated protein kinase kinase kinase kinase 5 (MAP4K5, Homo sapiens, UniProt Q9Y4K4)", "remaining binding": "100%"}
{"target": "Serine/threonine-protein kinase Nek11 (NEK11, Homo sapiens, UniProt Q8NG66)", "remaining binding": "100%"}
{"target": "Epidermal growth factor receptor (EGFR, Homo sapiens, UniProt P00533, del752-759)", "remaining binding": "100%"}
{"target": "Serine/threonine-protein kinase 38 (STK38, Homo sapiens, UniProt Q15208)", "remaining binding": "93%"}
{"target": "Serine/threonine-protein kinase 4 (STK4, Homo sapiens, UniProt Q13043)", "remaining binding": "100%"}
{"target": "Serine/threonine-protein kinase TAO1 (TAOK1, Homo sapiens, UniProt Q7L7X3)", "remaining binding": "100%"}
{"target": "Tyrosine-protein kinase ABL1, phosphorylated (ABL1, Homo sapiens, UniProt P00519, Q252H)", "remaining binding": "100%"}
{"target": "BDNF/NT-3 growth factors receptor (NTRK2, Homo sapiens, UniProt Q16620)", "remaining binding": "100%"}
{"target": "Receptor-interacting serine/threonine-protein kinase 1 (RIPK1, Homo sapiens, UniProt Q13546)", "remaining binding": "100%"}
{"target": "Tyrosine-protein kinase ABL1, non-phosphorylated (ABL1, Homo sapiens, UniProt P00519)", "remaining binding": "97%"}
{"target": "Dual specificity mitogen-activated protein kinase kinase 7 (MAP2K7, Homo sapiens, UniProt O14733)", "remaining binding": "100%"}
{"target": "Uncharacterized serine/threonine-protein kinase SBK3 (SBK3, Homo sapiens, UniProt P0C264)", "remaining binding": "76%"}
{"data": "Mixed results"}
{"SMILES": "O=C1CCC(N2Cc3cc(C4CCN(Cc5ccccc5)CC4)ccc3C2=O)C(=O)N1 (stereo not drawn)", "cell line": "Jurkat", "tested at": "10 nM", "time": "24 h", "with": "CD3/CD28 beads, 1:4", "quantity": "IL-2 level", "result": "126 pg/mL and 130 pg/mL and 132 pg/mL"}
{"note": "Some of these lines once more (sample 1):"}
{"Compound": "c1cc(-c2cc3c(ccn3Cc3ccncc3)c(N3CCOCC3)n2)cc(N2CCOCC2)c1", "EC50": "≥ 100 µM"}
{"Compound": "C[C@H](O)c1onc(-c2ccccc2)c1C(=O)NC1CCOCC1", "EC50": "≥ 100 µM"}
{"Compound": "O=[S+]([O-])(NCc1cccc2ccccc12)c1cc(Cl)c(Oc2cccc(N3CCNCC3)c2)s1", "EC50": "≥ 100 µM"}
